# Published values collected from several papers.
# Amino acid sequences for entries named in this document (tags omitted). A change or cut given only in a name is not applied to a line headed by its entry. Residues count along the entry.
# UniProt A0A381MCS3, 1-451: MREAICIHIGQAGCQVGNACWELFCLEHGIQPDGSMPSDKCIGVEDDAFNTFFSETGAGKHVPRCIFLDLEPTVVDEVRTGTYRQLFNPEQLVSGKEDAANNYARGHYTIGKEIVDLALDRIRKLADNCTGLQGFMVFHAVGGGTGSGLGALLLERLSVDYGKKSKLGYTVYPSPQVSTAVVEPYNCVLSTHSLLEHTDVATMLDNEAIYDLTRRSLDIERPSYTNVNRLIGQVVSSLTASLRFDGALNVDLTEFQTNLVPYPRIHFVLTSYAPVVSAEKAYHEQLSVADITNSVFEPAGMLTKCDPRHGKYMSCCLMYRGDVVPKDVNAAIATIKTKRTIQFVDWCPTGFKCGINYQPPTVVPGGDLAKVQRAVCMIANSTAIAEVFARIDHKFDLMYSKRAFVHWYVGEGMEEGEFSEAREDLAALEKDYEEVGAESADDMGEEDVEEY
# UniProt P11362, 22-822 limits assumed: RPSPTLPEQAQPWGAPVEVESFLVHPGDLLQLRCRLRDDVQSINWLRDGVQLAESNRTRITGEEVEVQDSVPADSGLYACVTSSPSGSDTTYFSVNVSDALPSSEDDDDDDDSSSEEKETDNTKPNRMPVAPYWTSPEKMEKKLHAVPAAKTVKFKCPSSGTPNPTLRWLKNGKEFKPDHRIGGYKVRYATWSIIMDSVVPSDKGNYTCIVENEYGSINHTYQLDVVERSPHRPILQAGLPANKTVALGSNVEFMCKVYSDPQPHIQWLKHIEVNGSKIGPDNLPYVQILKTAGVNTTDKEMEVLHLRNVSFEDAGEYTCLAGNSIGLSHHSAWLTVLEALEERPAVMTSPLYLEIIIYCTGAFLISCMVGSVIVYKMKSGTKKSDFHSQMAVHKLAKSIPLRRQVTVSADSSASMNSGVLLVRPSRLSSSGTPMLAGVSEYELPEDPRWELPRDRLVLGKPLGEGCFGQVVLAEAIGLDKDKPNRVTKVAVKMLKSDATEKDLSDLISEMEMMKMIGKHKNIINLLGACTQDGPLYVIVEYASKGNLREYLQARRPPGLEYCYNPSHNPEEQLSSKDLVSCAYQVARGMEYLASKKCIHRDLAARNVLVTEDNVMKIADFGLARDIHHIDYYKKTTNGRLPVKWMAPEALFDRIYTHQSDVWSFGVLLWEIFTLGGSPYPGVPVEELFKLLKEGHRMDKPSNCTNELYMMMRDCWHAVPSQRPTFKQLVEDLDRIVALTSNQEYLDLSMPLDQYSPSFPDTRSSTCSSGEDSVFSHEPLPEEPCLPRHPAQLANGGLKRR
# UniProt P11362, 478-767 limits assumed: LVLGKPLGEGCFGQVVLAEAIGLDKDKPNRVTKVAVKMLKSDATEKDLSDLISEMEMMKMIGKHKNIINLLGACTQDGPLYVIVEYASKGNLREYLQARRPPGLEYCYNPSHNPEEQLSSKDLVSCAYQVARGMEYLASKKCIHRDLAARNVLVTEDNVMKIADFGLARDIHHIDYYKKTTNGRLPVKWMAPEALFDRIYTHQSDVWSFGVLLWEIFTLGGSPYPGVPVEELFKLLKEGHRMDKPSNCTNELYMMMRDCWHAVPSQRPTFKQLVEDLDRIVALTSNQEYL
# UniProt P03372, whole entry: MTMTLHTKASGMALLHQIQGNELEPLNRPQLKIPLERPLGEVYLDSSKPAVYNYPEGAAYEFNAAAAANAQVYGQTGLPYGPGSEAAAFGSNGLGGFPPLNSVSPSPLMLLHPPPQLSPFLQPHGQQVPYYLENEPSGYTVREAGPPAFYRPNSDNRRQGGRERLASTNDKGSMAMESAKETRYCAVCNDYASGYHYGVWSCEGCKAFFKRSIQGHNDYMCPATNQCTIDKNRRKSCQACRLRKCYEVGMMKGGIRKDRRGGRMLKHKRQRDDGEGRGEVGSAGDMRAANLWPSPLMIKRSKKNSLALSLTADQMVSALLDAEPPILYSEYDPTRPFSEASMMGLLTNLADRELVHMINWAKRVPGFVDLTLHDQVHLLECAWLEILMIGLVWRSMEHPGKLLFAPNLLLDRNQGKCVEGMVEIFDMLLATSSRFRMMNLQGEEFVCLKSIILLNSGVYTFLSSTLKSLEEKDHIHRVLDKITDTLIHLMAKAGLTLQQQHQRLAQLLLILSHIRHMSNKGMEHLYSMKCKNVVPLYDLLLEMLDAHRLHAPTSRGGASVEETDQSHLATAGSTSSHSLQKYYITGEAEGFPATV
# UniProt P14902, whole entry: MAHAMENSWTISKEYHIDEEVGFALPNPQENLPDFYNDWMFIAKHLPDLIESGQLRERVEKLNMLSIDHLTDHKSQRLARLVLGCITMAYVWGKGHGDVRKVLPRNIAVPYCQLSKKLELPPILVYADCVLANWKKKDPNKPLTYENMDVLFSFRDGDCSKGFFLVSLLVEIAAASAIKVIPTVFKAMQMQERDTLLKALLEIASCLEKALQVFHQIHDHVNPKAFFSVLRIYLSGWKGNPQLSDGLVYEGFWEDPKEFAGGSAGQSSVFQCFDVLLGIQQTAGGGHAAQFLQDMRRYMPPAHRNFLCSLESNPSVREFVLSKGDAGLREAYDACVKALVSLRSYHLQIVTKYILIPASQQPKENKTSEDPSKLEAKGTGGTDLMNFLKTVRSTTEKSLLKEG
# UniProt P28300, whole entry, looked up: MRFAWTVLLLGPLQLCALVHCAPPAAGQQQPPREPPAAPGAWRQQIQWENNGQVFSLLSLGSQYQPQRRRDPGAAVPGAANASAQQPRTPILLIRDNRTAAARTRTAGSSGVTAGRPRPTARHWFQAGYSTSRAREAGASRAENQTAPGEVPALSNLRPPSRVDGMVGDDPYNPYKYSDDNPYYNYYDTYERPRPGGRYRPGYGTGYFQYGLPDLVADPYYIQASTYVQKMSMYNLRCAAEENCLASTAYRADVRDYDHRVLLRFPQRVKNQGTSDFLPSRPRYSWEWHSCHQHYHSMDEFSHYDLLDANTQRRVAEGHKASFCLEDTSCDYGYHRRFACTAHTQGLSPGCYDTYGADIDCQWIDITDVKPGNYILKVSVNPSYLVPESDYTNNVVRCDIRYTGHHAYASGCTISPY
# UniProt Q00535, whole entry: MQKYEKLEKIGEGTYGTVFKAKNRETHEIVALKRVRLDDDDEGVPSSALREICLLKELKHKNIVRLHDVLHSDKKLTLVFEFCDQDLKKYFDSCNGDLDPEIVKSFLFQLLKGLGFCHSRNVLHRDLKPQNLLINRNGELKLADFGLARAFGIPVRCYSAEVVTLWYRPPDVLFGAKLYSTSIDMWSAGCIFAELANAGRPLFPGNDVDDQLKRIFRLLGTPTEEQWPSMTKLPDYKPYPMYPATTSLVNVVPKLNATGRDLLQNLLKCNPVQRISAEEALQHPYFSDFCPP
# UniProt P07949, whole entry, looked up, stated change not applied: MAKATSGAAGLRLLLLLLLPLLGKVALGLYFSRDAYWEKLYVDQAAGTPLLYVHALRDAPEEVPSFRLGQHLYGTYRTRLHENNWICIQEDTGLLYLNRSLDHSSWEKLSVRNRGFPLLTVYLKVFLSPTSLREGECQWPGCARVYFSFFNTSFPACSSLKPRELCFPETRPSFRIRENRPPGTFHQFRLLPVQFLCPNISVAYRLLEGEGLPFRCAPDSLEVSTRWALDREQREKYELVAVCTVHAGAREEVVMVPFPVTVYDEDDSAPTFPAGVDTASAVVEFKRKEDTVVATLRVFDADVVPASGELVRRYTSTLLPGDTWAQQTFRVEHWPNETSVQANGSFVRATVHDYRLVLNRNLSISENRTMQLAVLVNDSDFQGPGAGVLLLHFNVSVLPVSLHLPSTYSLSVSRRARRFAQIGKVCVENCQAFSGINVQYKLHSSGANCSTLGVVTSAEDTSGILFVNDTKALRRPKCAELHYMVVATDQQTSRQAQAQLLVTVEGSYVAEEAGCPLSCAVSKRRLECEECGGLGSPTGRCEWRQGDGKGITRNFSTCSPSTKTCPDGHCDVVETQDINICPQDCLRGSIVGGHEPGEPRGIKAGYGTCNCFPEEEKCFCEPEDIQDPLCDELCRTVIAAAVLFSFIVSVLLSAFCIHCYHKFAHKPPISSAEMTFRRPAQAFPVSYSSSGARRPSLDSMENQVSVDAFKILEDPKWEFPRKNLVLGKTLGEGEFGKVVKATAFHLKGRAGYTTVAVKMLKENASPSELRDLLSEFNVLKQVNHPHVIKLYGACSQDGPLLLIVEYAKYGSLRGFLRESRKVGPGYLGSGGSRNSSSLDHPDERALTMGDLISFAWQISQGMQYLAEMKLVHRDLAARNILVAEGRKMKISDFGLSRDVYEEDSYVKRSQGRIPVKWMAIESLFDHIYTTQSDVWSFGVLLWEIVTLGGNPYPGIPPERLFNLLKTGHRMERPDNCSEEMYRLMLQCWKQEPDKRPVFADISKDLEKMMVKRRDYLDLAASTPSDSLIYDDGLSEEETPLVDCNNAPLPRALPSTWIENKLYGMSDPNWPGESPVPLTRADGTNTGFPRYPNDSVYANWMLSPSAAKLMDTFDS
# UniProt Q6ZVD8, whole entry, looked up: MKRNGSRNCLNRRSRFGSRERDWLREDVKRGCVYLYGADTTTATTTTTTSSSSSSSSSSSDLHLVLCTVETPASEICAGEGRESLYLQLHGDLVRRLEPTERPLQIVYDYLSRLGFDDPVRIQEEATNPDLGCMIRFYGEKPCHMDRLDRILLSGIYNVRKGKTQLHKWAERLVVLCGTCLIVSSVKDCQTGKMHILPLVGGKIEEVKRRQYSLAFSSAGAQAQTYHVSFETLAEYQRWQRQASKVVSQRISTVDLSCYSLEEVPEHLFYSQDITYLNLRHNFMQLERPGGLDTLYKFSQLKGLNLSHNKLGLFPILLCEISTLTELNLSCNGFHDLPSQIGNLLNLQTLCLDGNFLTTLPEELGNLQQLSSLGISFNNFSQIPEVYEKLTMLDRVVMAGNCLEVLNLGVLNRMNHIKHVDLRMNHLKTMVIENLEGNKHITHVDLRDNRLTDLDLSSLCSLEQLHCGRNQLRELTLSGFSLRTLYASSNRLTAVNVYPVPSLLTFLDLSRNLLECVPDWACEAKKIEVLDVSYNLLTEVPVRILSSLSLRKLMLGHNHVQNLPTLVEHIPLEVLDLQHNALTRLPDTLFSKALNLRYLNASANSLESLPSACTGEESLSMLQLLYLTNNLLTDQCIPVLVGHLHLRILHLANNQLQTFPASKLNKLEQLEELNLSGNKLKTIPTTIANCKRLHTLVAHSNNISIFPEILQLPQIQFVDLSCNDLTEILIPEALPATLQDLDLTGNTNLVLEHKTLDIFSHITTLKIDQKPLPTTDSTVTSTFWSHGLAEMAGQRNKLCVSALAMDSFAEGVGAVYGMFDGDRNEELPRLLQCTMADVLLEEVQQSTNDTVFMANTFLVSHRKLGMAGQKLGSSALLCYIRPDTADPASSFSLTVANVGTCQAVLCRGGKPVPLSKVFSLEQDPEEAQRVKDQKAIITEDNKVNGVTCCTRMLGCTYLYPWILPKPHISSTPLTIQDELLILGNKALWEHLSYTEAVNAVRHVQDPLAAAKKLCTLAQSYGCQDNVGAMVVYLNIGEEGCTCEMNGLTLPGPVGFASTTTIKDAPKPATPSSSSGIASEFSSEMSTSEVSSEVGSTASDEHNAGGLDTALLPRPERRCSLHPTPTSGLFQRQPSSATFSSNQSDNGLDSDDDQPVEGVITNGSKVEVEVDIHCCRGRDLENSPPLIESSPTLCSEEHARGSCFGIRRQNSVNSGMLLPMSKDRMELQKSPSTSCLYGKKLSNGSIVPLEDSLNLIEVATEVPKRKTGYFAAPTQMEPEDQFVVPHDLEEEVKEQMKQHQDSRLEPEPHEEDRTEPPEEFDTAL
# UniProt Q13304, whole entry: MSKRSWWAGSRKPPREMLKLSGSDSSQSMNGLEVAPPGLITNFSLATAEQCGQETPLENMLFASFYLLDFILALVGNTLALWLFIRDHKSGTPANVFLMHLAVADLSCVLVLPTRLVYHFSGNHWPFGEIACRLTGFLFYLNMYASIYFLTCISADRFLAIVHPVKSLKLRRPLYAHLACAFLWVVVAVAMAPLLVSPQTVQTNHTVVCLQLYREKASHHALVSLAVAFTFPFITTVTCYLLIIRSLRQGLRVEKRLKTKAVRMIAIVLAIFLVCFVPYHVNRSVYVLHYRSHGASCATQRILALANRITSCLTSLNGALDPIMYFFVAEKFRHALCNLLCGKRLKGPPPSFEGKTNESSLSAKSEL
# UniProt O15151, 23-111 limits assumed: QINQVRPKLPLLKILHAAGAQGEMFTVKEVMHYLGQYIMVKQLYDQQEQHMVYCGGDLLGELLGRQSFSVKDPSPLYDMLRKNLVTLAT
# UniProt P23526, whole entry: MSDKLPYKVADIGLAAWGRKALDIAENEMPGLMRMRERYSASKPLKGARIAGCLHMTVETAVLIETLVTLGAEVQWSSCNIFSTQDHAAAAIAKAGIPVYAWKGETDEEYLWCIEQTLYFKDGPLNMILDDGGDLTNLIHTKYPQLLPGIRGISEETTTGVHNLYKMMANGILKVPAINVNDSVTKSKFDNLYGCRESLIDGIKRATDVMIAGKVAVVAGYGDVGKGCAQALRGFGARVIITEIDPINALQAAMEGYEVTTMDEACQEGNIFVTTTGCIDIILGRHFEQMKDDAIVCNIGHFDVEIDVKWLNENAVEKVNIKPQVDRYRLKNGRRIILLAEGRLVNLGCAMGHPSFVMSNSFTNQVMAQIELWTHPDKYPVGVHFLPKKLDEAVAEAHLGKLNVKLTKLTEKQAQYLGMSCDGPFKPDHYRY
# Protocols differ between the studies behind these lines. Numbers after ± are the reported error.
# Grm2: Metabotropic glutamate receptor 2 (Grm2, Rattus norvegicus, UniProt P31421)
# APP amyloid-beta peptide: Amyloid-beta precursor protein, amyloid-beta peptide (APP, Homo sapiens, UniProt P05067)
# Tubulin alpha/beta heterodimer: Tubulin alpha/beta heterodimer (Leishmania infantum, UniProt A0A381MCS3+A4HTR0)
# FGFR1: Fibroblast growth factor receptor 1 (FGFR1, Homo sapiens, UniProt P11362)
# ESR1: Estrogen receptor (ESR1, Homo sapiens, UniProt P03372)
# SYK with FCER1G: Tyrosine-protein kinase SYK, with FCER1G (SYK, Homo sapiens, UniProt P43405)
# IDO1: Indoleamine 2,3-dioxygenase 1 (IDO1, Homo sapiens, UniProt P14902)
Structure (SMILES),target,assay,system,conditions,scale,IC50 [µM]
O=C(c1ccc(O)c(I)c1)N1Cc2ccccc2C1,"Heat shock protein HSP 90-alpha (HSP90AA1, Homo sapiens, UniProt P07900)","binding, fluorescence polarization",,added: FITC-geldanamycin tracer,,> 100
CN(c1ccncc1)c1ccc2c(c1)c(=O)c(C(N)=O)cn2-c1ccc(F)cc1,Grm2,"calcium mobilization, negative allosteric modulator",,,,0.874
COC(=O)/C(=C/c1c[nH]c2ccc(F)cc12)c1ccc(F)cc1,APP amyloid-beta peptide,"Aβ42 oligomerisation, ELISA",,,,> 20
O=C(Cn1c(-c2cscn2)nc2ccccc21)Nc1ccc(Cl)cc1,"Inosine-5'-monophosphate dehydrogenase 2 (IMPDH2, Homo sapiens, UniProt P12268)","enzyme activity, inhibitor",,,lower bound,≥ 20
CCOc1ccc(S(=O)(=O)NC(=O)Cc2ccc(C)cc2)cc1Br,"Cyclic GMP-AMP synthase (CGAS, Homo sapiens, UniProt Q8N884)","enzyme activity, inhibitor, ATP depletion",,,,1.88
O=C(O)c1cc(C(=O)N2CCC[C@H]2C(=O)O)cc([C@H]2CCN[C@@H]2C(=O)O)c1,"Glutamate receptor ionotropic, NMDA 2C, with GluN1 (Rattus norvegicus, UniProt Q00961)","ion current, antagonist, two-electrode voltage clamp",Xenopus oocytes,"GluN1/GluN2C, added: glycine 100 µM and glutamate 1 µM",,4.5 ± 0.22
CCn1nccc1N=CC1=Cc2cc3c(cc2[C@@H](c2cc(OC)c(OC)c(OC)c2)[C@@H]1C(=O)OC)OCO3,Tubulin alpha/beta heterodimer,"tubulin polymerization, inhibitor",,"37 °C, added: tubulin 1.2 mg/mL",,7.5 ± 1.1
Cc1ccc(N=Nc2cc(S(=O)(=O)O)cc(S(=O)(=O)O)c2O)c(C)c1,"ALK tyrosine kinase receptor (ALK, Homo sapiens, UniProt Q9UM73)",ELISA,,,,41
Cc1ncsc1-c1ccc(CNC(=O)[C@@H]2C[C@@H](O)CN2C(=O)c2cccc(O)c2)cc1,"von Hippel-Lindau disease tumor suppressor, with elongin B, C (VHL, Homo sapiens, UniProt P40337)","binding, fluorescence polarization",,"10% DMSO, added: FAM-HIF1α peptide tracer",,3.5 ± 0.2
O=C1NC(=O)C(=Cc2cn(Cc3ccc4ccccc4c3)c3ccc(Cl)cc23)C(=O)N1,"DNA polymerase eta (POLH, Homo sapiens, UniProt Q9Y253)","DNA polymerase activity, inhibitor, fluorescence",,added: dTTP 100 µM,,9
CNCCN(C)c1ccc(Nc2cc(NC3CC3)n3ncc(C#N)c3n2)cc1NC(C)=O,"Casein kinase II subunit alpha (CSNK2A1, Homo sapiens, UniProt P68400)","target engagement, NanoBRET",HEK293,,,0.0033
COC(=O)N1CCN(CCCOc2ccccc2NC(=O)NC23CC4CC(CC(C4)C2)C3)CC1,"Bifunctional epoxide hydrolase 2 (EPHX2, Homo sapiens, UniProt P34913)","enzyme activity, inhibitor",,"pH 7.0, 30 °C, added: CMNPC 5 µM",,9.1
COc1cc(-c2nc3sc4cc(-c5ccccc5)ccc4c3c(=O)[nH]2)ccc1OCC(=O)O,FGFR1,"kinase activity, inhibitor, AlphaScreen",,added: biotinylated peptide substrate,,75
Cn1ccnc1SCC(=O)Nc1ccc2nc(SCC(=O)NC3CC3)sc2c1,ESR1,"reporter gene, antagonist",HEC-1 transfected ERα luciferase reporter,,,20 to 50
CNC(=O)Oc1ccccc1C=C1Cc2cc(OC)c(OC)cc2C1=O,"Cocaine esterase (CES2, Homo sapiens, UniProt O00748)",inhibitor,,"33 min preincubation, added: fluorescein diacetate",,0.346 ± 0.0291
NS(=O)(=O)c1ccccc1Nc1nc(-c2ccc(Cl)cc2)c2ccccc2n1,"Bromodomain-containing protein 4, BD1 (BRD4, Homo sapiens, UniProt O60885)","binding, HTRF",,,,0.612 ± 0.214
Nc1cc(-c2ccc(C3(c4ccc(Cl)cc4)CCNCC3)cc2)ccn1,"RAC-alpha serine/threonine-protein kinase (AKT1, Homo sapiens, UniProt P31749)","kinase activity, inhibitor, radiometric HotSpot",,added: ATP 10 µM,,0.038
COc1ccccc1Nc1nc(-c2sc(N)nc2C)cs1,"Protein-lysine 6-oxidase (Homo sapiens, UniProt P28300)","LOX activity, inhibitor",MDA-MB-231,,,> 10
COc1ccc(C(=O)Nc2ccc(-c3nc4ccccc4s3)cc2)cc1,SYK with FCER1G,"protein binding, inhibitor, TR-FRET",,,,> 100
O=[N+]([O-])c1cccc(/C=C/c2c[nH]c3ccc(F)cc23)c1,IDO1,"enzyme activity, inhibitor",,,,> 100
COc1cc(Nc2ccnc3ccc(Br)cc23)cc(OC)c1OC,"Serine/threonine-protein kinase N3 (PKN3, Homo sapiens, UniProt Q6P5Z2)","target engagement, NanoBRET",HEK293,,,3.5
CN1CC[C@H](c2c(O)cc(O)c3c(=O)cc(-c4ccccc4F)oc23)[C@H](O)C1,"Cyclin-dependent kinase 5, with p35 (CDK5, Homo sapiens, UniProt Q00535)",,,ATP at Km,,0.086
Clc1ccc(C2(c3ccc(-c4ccnc5ccccc45)cc3)CCNCC2)cc1,"Serine/threonine-protein kinase LATS1 (LATS1, Homo sapiens, UniProt O95835)","kinase activity, inhibitor, radiometric HotSpot",,added: ATP 10 µM,,0.55
COC(=O)[C@@H]1C(C=Nc2cc(C)ccc2O)=Cc2cc3c(cc2[C@H]1c1cc(OC)c(OC)c(OC)c1)OCO3,Tubulin alpha/beta heterodimer,"tubulin polymerization, inhibitor",,"37 °C, added: tubulin 1.2 mg/mL",,4.3 ± 0.6
O=C(CSc1ccc2ccccc2c1)Nc1ccc2nc(SCC(=O)NC3CC3)sc2c1,ESR1,"reporter gene, antagonist",HEC-1 transfected ERα luciferase reporter,,,8.7
O=C(O)c1cc(C(=O)N[C@@H](Cc2cnc[nH]2)C(=O)O)cc([C@H]2CCN[C@@H]2C(=O)O)c1,kainate receptor (rat),"binding, radioligand binding",rat cortical synaptosomes,added: [3H]kainate,,10 to 50
CC(C)CNC(=O)CSc1nc2ccc(NC(=O)CSc3ccccc3C(F)(F)F)cc2s1,ESR1,"reporter gene, antagonist",HEC-1 transfected ERα luciferase reporter,,,20 to 50
O=C(CN1C(=O)C=CC1=O)N1CCN(c2cc(N3CCCC3)nc(N3CCCC3)n2)CC1,"Caspase-1 (CASP1, Homo sapiens, UniProt P29466)",inhibitor,,45 min preincubation,,0.094 ± 0.013
CN1CC[C@H](c2c(O)cc(O)c3c(=O)cc(-c4ccccn4)oc23)[C@H](O)C1,"Cyclin-dependent kinase 9, with cyclin T1 (CDK9, Homo sapiens, UniProt P50750)",inhibitor,,"with cyclin T1, GST-CTD substrate",,0.0113
Cc1ccc2oc(-c3c4c(N)n[nH]c(=O)c4nn3-c3ccc(Cl)cc3)c(C)c2c1,FGFR1,"kinase activity, inhibitor, ELISA",,,,0.0324 ± 0.0062
O=C(O)CC[C@H](NC(=O)c1cc(C(=O)O)cc([C@H]2CCN[C@@H]2C(=O)O)c1)C(=O)O,"Glutamate receptor ionotropic, NMDA 2B, with GluN1 (Grin2b, Rattus norvegicus, UniProt Q00960)","ion current, antagonist, two-electrode voltage clamp",Xenopus oocytes,"GluN1/GluN2B, added: glycine 100 µM and glutamate 1 µM",,3.89 ± 0.22
COC(=O)/C(=C/c1c[nH]c2ccc(OC)cc12)c1ccc(NS(C)(=O)=O)cc1,IDO1,"enzyme activity, inhibitor",,,,29.5
CC(C)n1nnc(-c2cc(O)cc(Nc3ncnn4ccc(CN5CCC(N)CC5)c34)c2)n1,"AP2-associated protein kinase 1 (AAK1, Homo sapiens, UniProt Q2M2I8)",,,,,0.0038
O=C(Nc1ccc(-c2nc3ccccc3[nH]2)cc1)c1ccccc1F,SYK with FCER1G,"protein binding, inhibitor, TR-FRET",,,,> 100
CN1CCC[C@@H]1C(=O)N[C@@H](Cc1ccccc1)B(O)O,"20S proteasome, β1 subunit (Plasmodium falciparum, UniProt Q8I0U7+Q8I6T3)","enzyme activity, inhibitor",,added: Ac-nLPnLD-AMC,,> 10
CN1CCN(Cc2ccc(NC(=O)c3cncc(C#Cc4cncc5ncccc45)c3)cc2C(F)(F)F)CC1,"Kinesin-1 heavy chain/ Tyrosine-protein kinase receptor RET (RET/KIF5B, Homo sapiens, UniProt P07949+P33176, G810D)","cell viability, inhibitor, CellTiter-Glo",Ba/F3 KIF5B-RET G810D,,,0.00671 ± 0.0003
Nc1c(S(=O)(=O)O)cc(Br)c2c1C(=O)c1ccccc1C2=O,"PH domain leucine-rich repeat-containing protein phosphatase 2 (Homo sapiens, UniProt Q6ZVD8)","enzyme activity, inhibitor",,,,5.22 ± 0.08
Nc1ccccc1-c1nc2ccccc2[nH]c1=O,"Protein diaphanous homolog 1, FH2 domain (Diaph1, Mus musculus, UniProt O08808)","actin assembly, inhibitor, pyrene-actin polymerization",,,,> 50
COC(C)(C)Cn1nc(-c2ccc3cc(OC4CC4)ccc3c2)c2c(N)ncnc21,"Proto-oncogene tyrosine-protein kinase Src (SRC, Homo sapiens, UniProt P12931)","enzyme activity, inhibitor, Kinase-Glo",,,,> 10
COc1ccc2nc3ccc(OC)cc3c(SCCN)c2c1,"Serine/threonine-protein kinase haspin (HASPIN, Homo sapiens, UniProt Q8TF76)","inhibitor, TR-FRET",,added: histone H3 peptide,,0.2
O=C(Nc1ccc(Cl)cc1)C(NS(=O)(=O)c1ccccc1)c1ccccc1 (stereo not shown),"Uracil nucleotide/cysteinyl leukotriene receptor, long isoform (GPR17, Homo sapiens, UniProt Q13304)","calcium mobilization, antagonist",1321-N1,,,15.2 ± 1.27
CC(C)Oc1cc(C#N)ccc1C1=N[C@@H](c2cccc(Cl)c2)[C@@H](c2ccc(Cl)cc2)N1C(=O)N1CCNC(=O)C1,"Protein Mdm4, N-terminal domain (MDM4, Homo sapiens, UniProt O15151)","MdmX-p53 binding, fluorescence polarization",,MdmX residues 23-111,,8.6
COc1ccc2[nH]cc(CCc3ccc(OS(C)(=O)=O)cc3)c2c1,APP amyloid-beta peptide,"Aβ42 oligomerisation, ELISA",,,,> 20
O=C(NO)c1ccccc1F,"Protein deacetylase HDAC6 (HDAC6, Homo sapiens, UniProt Q9UBN7)","enzyme activity, inhibitor, electrophoretic mobility shift",,added: FAM-RHKK(Ac)-NH2 1 µM,,3.02
COc1cc(Cl)ccc1-c1nc(Nc2nc3ccccc3o2)ncc1C#N,"Metabotropic glutamate receptor 5 (Grm5, Rattus norvegicus, UniProt P31424)","calcium mobilization, negative allosteric modulator",,added: glutamate EC80,,0.148 ± 0.042
COc1ccc(N=Nc2c(S(=O)(=O)OC(C)C)cc3cc(Nc4nc(Cl)nc(Cl)n4)ccc3c2O)cc1,"Histone-arginine methyltransferase CARM1 (CARM1, Homo sapiens, UniProt Q86X55)",histone methylation,,added: histone 3,,52.4 ± 6.6
CCOC(=O)/C=C/CNCCCCN1c2ccccc2CCc2ccc(Cl)cc21,"E3 ubiquitin-protein ligase NEDD4 (Homo sapiens, UniProt P46934)","ubiquitination, inhibitor, Ub-TR-FRET",,"1 h preincubation, full-length protein",,1.8 ± 0.182
CC(=O)N(CC#Cc1cccc(C(N)=O)c1)C[C@H]1C[C@@H](n2ccc3c(Cl)ncnc32)[C@H](O)[C@@H]1O,"Adenosylhomocysteinase (AHCY, Homo sapiens, UniProt P23526)","enzyme activity, inhibitor, fluorescence",,,,> 100
CC(=O)Nc1ccc(/C=C/c2c[nH]c3ccc(F)cc23)cc1,IDO1,"enzyme activity, inhibitor",,,,15.1
CCn1c(-c2cc(NC(=O)c3cnccn3)n[nH]2)cc2ccc(OC)cc21,"Glycogen synthase kinase-3 beta (GSK3B, Homo sapiens, UniProt P49841)","enzyme activity, inhibitor",,,,8.6 ± 0.68
O=C(OC(C(F)(F)F)C(F)(F)F)N1Cc2cccc(Br)c2C1,"Monoacylglycerol lipase ABHD6 (ABHD6, Homo sapiens, UniProt Q9BV23)","inhibitor, fluorescence",,,,0.115 ± 0.0019
CC1(C#Cc2cc(-c3nn(-c4nc(C(=O)O)cs4)c(CC4CC4)c3Cc3ccc(S(N)(=O)=O)c(F)c3)ccc2F)COC1,"L-lactate dehydrogenase A chain (LDHA, Homo sapiens, UniProt P00338)","enzyme activity, inhibitor",,,,0.004
Nc1nc2c(ncn2COCCNC(=O)CCCCNC(=O)c2cc3cc(Br)ccc3c(Br)c2O)c(=O)[nH]1,"Deoxynucleoside triphosphate triphosphohydrolase SAMHD1 (SAMHD1, Homo sapiens, UniProt Q9Y3Z3)","ssDNA binding, fluorescence anisotropy",,"1 µM protein, added: FAM-labelled 32-mer ssDNA probe",,~5
S=c1[nH]c2ccccc2s1,"72 kDa type IV collagenase (MMP2, Homo sapiens, UniProt P08253)",inhibitor,,,,102 ± 12.7
CN(c1cccnc1)c1ccc2c(c1)c(=O)c(C(N)=O)cn2-c1ccc(F)cc1,Grm2,"calcium mobilization, negative allosteric modulator",,,,0.318

# Excerpt of the above:
Structure (SMILES),target,assay,system,conditions,scale,IC50 [µM]
CCOC(=O)/C=C/CNCCCCN1c2ccccc2CCc2ccc(Cl)cc21,"E3 ubiquitin-protein ligase NEDD4 (Homo sapiens, UniProt P46934)","ubiquitination, inhibitor, Ub-TR-FRET",,"1 h preincubation, full-length protein",,1.8 ± 0.182
CC(=O)N(CC#Cc1cccc(C(N)=O)c1)C[C@H]1C[C@@H](n2ccc3c(Cl)ncnc32)[C@H](O)[C@@H]1O,"Adenosylhomocysteinase (AHCY, Homo sapiens, UniProt P23526)","enzyme activity, inhibitor, fluorescence",,,,> 100
CC(=O)Nc1ccc(/C=C/c2c[nH]c3ccc(F)cc23)cc1,IDO1,"enzyme activity, inhibitor",,,,15.1
CCn1c(-c2cc(NC(=O)c3cnccn3)n[nH]2)cc2ccc(OC)cc21,"Glycogen synthase kinase-3 beta (GSK3B, Homo sapiens, UniProt P49841)","enzyme activity, inhibitor",,,,8.6 ± 0.68
O=C(OC(C(F)(F)F)C(F)(F)F)N1Cc2cccc(Br)c2C1,"Monoacylglycerol lipase ABHD6 (ABHD6, Homo sapiens, UniProt Q9BV23)","inhibitor, fluorescence",,,,0.115 ± 0.0019
CC1(C#Cc2cc(-c3nn(-c4nc(C(=O)O)cs4)c(CC4CC4)c3Cc3ccc(S(N)(=O)=O)c(F)c3)ccc2F)COC1,"L-lactate dehydrogenase A chain (LDHA, Homo sapiens, UniProt P00338)","enzyme activity, inhibitor",,,,0.004
Nc1nc2c(ncn2COCCNC(=O)CCCCNC(=O)c2cc3cc(Br)ccc3c(Br)c2O)c(=O)[nH]1,"Deoxynucleoside triphosphate triphosphohydrolase SAMHD1 (SAMHD1, Homo sapiens, UniProt Q9Y3Z3)","ssDNA binding, fluorescence anisotropy",,"1 µM protein, added: FAM-labelled 32-mer ssDNA probe",,~5
